Results of several laboratories.
Protocols differ between the studies behind these lines. Several values in a cell are separate wells, animals, samples, runs or records.
Target: Protein-tyrosine kinase 6 (PTK6, Homo sapiens, UniProt Q13882)

| Structure (SMILES) | test | conditions | how to read | measurement | result |
| --- | --- | --- | --- | --- | --- |
| CNC(=O)C1CCN(c2cc(C)c(F)cc2NC(=O)c2ccc(-c3cc(O)ccc3C)c(C)c2)CC1 | binding, competition with immobilised ligand | 1 µM | – | remaining binding | 86% |
| C=CC(=O)N1CCCC(n2c(=O)c3ncccc3n(Cc3ccc(Oc4ccccc4)cc3)c2=O)C1 (stereo not shown) | cell-free assay, competition with immobilised ligand | 1 µM | – | remaining binding | 98% |
| COc1c(Cl)cccc1Nc1c(-c2ccncc2C#C[C@@]2(C)CCCN2C(=O)/C=C/CN(C)C)[nH]c2c1C(=O)NCC2 | binding, competition with immobilised ligand | 3 µM | – | remaining binding | 91% |
| CCn1cc(C(=O)O)c(=O)c2c(N)c(F)c(NC3CCCCC3)cc21 | kinase activity | 0.1 µM, added: ATP at Km | – | inhibition | -5.7% |
| CNC1C[S+]2CC[S+]3CC[S+](C1)[Ru-4]321([N]=C=S)[n]2c3ccc(OC)cc3c3c4c(c5cc(F)c[n+]1c5c32)C(=O)NC4=O (stereo not shown) | KinomeScan | 0.1 µM | baseline: untreated | remaining binding | 100% |
| Cc1cnc2nc1Nc1cccc(c1)COC/C=C/COCc1cc(ccc1OCCN1CCOCC1)N2 | binding, competition with immobilised ligand | 0.1 µM | – | remaining binding | 100% |
| C=CC(=O)Nc1cccc(-c2cnc3[nH]cc(C(=O)NC(C)(C)C)c3n2)c1 | enzyme activity, inhibitor | 0.1 µM | – | inhibition | 2% |
| CCN1CCN(Cc2ccc(C(=O)Nc3ccc(C)c(NCc4cnc5[nH]ccc5c4OC)c3)cc2C(F)(F)F)CC1 | binding, competition with immobilised ligand | 1 µM | – | remaining binding | 85% |
| Cc1cccc(O[C@H]2CCC[C@@H](C(C)CNCc3ccncc3)C2)c1 (relative stereo) | enzyme activity, inhibitor | 10 µM | – | inhibition | -10% |
| COCC12C(=O)NC3C4(C(OC)CC1O)C1CC5(O)C(OC)C(O)C(OC(C)=O)(C1C5OC(=O)c1ccccc1)C3(O)C(OC)C24 (stereo not shown) | kinase activity, inhibitor, ProQinase kinase profiling | 25 µM | baseline: control | remaining activity | 97% and 113% |
| O=C(Nc1ccc(Oc2ncnc3[nH]cc(-c4ccccc4)c23)c(F)c1)c1c2n(n(-c3cc(F)ccc3F)c1=O)CCCC2 | enzyme activity, inhibitor | 0.5 µM | – | inhibition | 14% |
| COc1ccc(NC(=O)Nc2ccc3c(c2)C(=O)N(C(C)CO)CC(C)C(CN(C)Cc2ccc4c(c2)OCO4)O3)cc1 (stereo not shown) | kinase activity, KinaseProfiler | 0.03 µM, species human | baseline: control | remaining activity | 106% |
| CN1CCN(Cc2ccc(-c3ccc(CO[C@H]4CCC[C@@H]4NC(=O)c4cc(-c5cnn(C)c5)cnc4N)cc3)cc2)CC1 | enzyme activity, inhibitor | 0.1 µM | – | inhibition | 3% |
| NC(=O)C[C@H]1CCc2sc3ncnc(O[C@H]4CC[C@H](N5CCOCC5)CC4)c3c21 | enzyme activity, inhibitor | 10 µM | – | inhibition | 22% |
| COc1cc(Nc2nccc(-c3cnn4nc(OC)ccc34)n2)cc(C(F)(F)F)c1 | binding, competition with immobilised ligand | 1 µM | – | remaining binding | 98% |
| C=CC(=O)N1CCc2ccc(-n3c(=O)ccc4cnc5ccc(-c6cnn(C)c6)cc5c43)cc21 | KINOMEscan | 1 µM | baseline: DMSO control | remaining binding | 97% |

Excerpt of the above:
| Structure (SMILES) | test | conditions | how to read | measurement | result |
| --- | --- | --- | --- | --- | --- |
| CN1CCN(Cc2ccc(-c3ccc(CO[C@H]4CCC[C@@H]4NC(=O)c4cc(-c5cnn(C)c5)cnc4N)cc3)cc2)CC1 | enzyme activity, inhibitor | 0.1 µM | – | inhibition | 3% |
| CNC(=O)C1CCN(c2cc(C)c(F)cc2NC(=O)c2ccc(-c3cc(O)ccc3C)c(C)c2)CC1 | binding, competition with immobilised ligand | 1 µM | – | remaining binding | 86% |
| Cc1cccc(O[C@H]2CCC[C@@H](C(C)CNCc3ccncc3)C2)c1 (relative stereo) | enzyme activity, inhibitor | 10 µM | – | inhibition | -10% |
